Experimental data pooled from the literature.
Numbered parts are unrelated; each lists some results of a single study.
Sequence of UniProt Q96RR4 (whole entry, looked up): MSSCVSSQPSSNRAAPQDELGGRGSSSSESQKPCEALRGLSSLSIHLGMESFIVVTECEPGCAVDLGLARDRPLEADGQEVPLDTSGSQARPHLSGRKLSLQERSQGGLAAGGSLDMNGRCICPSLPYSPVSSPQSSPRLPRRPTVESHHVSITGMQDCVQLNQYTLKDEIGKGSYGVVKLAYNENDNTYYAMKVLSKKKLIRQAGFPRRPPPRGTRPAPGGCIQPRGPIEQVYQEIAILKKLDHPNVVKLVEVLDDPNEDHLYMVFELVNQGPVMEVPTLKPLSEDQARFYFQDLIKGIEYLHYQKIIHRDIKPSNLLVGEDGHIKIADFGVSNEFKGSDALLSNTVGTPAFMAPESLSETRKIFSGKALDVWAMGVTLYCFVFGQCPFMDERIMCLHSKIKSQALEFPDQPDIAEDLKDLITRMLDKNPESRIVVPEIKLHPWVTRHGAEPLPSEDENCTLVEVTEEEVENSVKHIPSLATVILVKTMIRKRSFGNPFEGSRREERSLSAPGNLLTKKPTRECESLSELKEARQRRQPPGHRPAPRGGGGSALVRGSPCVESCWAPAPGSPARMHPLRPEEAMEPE
Sequence of UniProt P36897 (whole entry, looked up): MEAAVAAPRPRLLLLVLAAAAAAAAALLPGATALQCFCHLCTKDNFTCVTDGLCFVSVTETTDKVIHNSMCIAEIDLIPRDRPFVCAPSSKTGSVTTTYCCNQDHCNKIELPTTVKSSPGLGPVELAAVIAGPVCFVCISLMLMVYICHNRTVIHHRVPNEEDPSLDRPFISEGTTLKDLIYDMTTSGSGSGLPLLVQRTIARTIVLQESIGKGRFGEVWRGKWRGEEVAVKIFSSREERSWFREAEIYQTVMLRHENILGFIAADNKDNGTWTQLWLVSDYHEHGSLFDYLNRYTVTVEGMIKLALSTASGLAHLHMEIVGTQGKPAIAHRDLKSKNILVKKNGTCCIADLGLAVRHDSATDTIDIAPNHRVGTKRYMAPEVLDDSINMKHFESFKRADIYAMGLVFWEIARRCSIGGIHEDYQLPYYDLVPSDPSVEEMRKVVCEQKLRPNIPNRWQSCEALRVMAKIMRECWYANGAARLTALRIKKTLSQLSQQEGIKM
Sequence of UniProt Q14164 (whole entry, looked up): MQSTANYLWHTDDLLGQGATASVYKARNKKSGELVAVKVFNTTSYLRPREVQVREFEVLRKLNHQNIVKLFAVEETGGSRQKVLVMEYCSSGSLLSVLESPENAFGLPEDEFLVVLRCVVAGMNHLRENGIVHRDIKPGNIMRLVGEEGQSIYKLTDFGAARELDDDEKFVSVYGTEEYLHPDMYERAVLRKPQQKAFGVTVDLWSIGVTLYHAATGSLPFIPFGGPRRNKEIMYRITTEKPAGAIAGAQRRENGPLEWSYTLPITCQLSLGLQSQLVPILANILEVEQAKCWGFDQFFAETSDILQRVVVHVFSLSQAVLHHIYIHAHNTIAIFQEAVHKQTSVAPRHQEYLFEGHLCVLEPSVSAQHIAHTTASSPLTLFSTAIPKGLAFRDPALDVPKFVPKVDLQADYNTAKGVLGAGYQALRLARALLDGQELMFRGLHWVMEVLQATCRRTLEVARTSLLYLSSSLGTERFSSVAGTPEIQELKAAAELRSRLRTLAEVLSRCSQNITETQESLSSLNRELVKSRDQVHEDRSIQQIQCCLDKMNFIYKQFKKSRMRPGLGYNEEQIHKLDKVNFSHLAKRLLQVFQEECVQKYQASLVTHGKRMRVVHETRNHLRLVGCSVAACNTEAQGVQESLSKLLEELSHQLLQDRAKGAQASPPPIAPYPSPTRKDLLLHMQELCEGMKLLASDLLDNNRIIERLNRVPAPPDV
Sequence of UniProt P51955 (whole entry, looked up): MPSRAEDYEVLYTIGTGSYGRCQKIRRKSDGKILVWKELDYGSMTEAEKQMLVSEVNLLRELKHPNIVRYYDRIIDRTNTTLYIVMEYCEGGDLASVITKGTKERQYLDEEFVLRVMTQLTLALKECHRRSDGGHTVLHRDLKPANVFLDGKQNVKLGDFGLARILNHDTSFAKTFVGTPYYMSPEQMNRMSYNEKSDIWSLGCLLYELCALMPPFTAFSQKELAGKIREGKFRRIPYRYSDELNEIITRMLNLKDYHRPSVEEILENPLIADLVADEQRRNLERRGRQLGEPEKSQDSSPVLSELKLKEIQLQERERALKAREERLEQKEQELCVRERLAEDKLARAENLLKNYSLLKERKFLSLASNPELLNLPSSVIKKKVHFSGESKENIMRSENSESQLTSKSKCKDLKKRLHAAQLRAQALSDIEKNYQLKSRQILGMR
Sequence of UniProt O95747 (whole entry, looked up): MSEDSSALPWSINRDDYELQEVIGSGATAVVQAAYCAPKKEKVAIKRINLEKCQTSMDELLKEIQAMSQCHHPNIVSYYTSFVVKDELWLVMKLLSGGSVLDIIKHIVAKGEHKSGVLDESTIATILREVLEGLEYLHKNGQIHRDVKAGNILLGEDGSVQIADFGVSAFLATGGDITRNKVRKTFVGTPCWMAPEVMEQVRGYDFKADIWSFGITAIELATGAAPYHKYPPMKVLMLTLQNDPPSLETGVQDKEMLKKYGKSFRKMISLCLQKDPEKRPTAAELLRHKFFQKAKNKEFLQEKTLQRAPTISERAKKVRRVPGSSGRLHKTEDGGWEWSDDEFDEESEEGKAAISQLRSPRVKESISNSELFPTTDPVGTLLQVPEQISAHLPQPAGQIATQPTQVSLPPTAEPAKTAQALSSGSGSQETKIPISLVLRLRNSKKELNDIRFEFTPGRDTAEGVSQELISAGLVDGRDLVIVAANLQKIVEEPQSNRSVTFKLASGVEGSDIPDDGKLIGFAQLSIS
Sequence of UniProt Q99759 (whole entry, looked up): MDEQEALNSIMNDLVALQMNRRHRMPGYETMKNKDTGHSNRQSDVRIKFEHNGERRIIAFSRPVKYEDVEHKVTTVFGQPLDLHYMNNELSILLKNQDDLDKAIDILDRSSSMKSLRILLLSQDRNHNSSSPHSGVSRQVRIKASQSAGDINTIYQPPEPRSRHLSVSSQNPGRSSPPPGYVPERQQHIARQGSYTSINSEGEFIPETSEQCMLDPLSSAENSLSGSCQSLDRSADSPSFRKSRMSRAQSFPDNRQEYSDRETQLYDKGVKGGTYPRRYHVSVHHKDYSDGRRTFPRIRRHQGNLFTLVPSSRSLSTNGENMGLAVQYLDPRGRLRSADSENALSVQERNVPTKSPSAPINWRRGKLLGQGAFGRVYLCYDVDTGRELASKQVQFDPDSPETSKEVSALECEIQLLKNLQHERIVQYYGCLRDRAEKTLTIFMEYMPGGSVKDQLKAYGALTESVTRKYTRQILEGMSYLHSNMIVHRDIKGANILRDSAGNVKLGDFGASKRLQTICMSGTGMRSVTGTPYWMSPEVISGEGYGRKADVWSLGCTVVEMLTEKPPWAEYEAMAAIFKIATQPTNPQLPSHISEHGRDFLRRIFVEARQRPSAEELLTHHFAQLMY
Sequence of UniProt O96017 (whole entry, looked up): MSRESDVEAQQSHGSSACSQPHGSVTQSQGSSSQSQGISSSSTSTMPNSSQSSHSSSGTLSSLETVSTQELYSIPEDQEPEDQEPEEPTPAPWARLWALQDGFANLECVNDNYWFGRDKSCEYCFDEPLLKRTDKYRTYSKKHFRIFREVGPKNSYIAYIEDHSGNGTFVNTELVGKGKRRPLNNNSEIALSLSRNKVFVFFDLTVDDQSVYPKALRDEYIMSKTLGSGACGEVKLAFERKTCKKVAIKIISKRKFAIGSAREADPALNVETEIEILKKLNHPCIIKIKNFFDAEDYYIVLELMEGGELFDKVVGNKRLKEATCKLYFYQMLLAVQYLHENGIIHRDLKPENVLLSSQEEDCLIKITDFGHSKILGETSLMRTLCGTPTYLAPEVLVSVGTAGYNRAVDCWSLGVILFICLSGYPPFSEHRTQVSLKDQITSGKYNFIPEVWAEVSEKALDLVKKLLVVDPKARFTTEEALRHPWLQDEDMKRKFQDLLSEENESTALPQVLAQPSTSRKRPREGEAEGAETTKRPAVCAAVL
Sequence of UniProt P37173 (whole entry, looked up): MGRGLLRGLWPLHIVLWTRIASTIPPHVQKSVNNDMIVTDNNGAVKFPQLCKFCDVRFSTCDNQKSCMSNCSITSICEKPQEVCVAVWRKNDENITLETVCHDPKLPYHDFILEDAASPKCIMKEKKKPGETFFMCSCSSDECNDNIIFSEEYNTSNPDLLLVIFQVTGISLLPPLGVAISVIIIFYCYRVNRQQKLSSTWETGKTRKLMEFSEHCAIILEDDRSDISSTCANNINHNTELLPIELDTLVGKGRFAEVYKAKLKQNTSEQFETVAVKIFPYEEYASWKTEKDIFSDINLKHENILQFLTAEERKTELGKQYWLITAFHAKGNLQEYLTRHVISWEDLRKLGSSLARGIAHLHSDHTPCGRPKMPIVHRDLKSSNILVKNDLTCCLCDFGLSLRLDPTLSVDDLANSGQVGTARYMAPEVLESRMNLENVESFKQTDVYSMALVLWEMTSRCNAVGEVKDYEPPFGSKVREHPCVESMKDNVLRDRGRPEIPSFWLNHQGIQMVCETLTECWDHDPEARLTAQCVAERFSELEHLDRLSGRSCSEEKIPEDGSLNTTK
Sequence of UniProt Q15831 (whole entry, looked up): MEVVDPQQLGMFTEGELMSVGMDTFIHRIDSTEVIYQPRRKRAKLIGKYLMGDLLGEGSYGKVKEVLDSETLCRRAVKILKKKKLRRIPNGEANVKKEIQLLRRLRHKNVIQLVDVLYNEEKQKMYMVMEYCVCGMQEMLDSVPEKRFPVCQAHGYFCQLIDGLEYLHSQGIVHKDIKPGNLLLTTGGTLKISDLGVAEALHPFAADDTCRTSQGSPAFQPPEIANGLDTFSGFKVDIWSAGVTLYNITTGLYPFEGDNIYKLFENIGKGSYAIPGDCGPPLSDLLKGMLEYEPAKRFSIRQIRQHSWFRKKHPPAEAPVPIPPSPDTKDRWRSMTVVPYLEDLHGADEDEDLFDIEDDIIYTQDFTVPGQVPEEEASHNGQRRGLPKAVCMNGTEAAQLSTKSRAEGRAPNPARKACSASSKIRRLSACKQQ

Series 1
Compound: O=C1NC(=O)c2c1c1c3ccccc3n3c1c1c2c2ccccc2n1[C@H]1CC[C@@H]3O1
Effect on: enzyme activity
Action: inhibitor
Tested at: 0.5 µM
Relative to: control
It gave 13.9% for remaining activity (PRKCA (Homo sapiens, UniProt P17252)).
It gave 92.4% for remaining activity (OXSR1 (Homo sapiens, UniProt O95747)).
TGFBR1 (Homo sapiens, UniProt P36897) — remaining activity: 110%.
TGFBR2 (Homo sapiens, UniProt P37173) — remaining activity: 70.3%.
It gave 50.5% for remaining activity (STK11 (Homo sapiens, UniProt Q15831)).
It gave 23.9% for remaining activity (IKBKE (Homo sapiens, UniProt Q14164)).
The remaining activity was 18.4% (MAP3K3 (Homo sapiens, UniProt Q99759)).
The remaining activity was 13% (CHEK2 (Homo sapiens, UniProt O96017)).
The remaining activity was 93.8% (NEK2 (Homo sapiens, UniProt P51955)).
Protein kinase C beta type, isoform beta-I (PRKCB, Homo sapiens, UniProt P05771) — remaining activity: 22.5%.
For CAMKK2 (Homo sapiens, UniProt Q96RR4): remaining activity read 7.93%.
It gave 44.7% for remaining activity (PRKACA (Homo sapiens, UniProt P17612)).

Series 2
Cell line: HEK-293T-ACE2-TMPRSS2
Technique: cell count
Tested at: concentration not given
`CCC1Oc2ccc(S(=O)(=O)N3CCN(C(=O)c4ccc(C#N)cc4F)CC3)cc2NC1=O` (stereo not drawn) has a viability of 71%.
With `O=C(CCC(=O)N1CCN(c2nc3cccnc3s2)CC1)N1CCN(C(=O)c2ccco2)CC1` the viability was 116%.
For `O=C(NCCc1csc(-c2ccccc2)n1)[C@H]1CCCN1S(=O)(=O)c1cccc2nsnc12`, the viability was 65%.
The viability of `Cc1oc2ncnc(N3CCC(C(=O)NC4CCCCCCC4)CC3)c2c1C` is reported as 68%.
The viability of `CCOc1ccc(-c2c(C)nn3c(-c4ccccc4)c(C(=O)Nc4cccnc4)cnc23)cc1OCC` is reported as 71%.
`CCn1cccc1-c1nc(C)c(C(=O)NCc2cc(OC)c(OC)c(OC)c2)s1` has a viability of 116%.
`Cc1ccc(Nc2cc(C)nc(N3CCN(C(=O)c4ccco4)CC3)n2)cc1` gave a viability of 108%.
For `Cc1sc2nc(CN3CCC(C)CC3)nc(-n3ccnc3)c2c1C`, the viability was 68%.
`Cc1nc2ccccn2c1CC(=O)NCc1nc(-c2ccccc2)no1` gave a viability of 68%.
The viability of `CN(C)c1ccc(/C=C/c2ccc3ccccc3[n+]2C)cc1` is reported as 66%.
The viability of `COc1ccc(C(=O)/C=C/Sc2nc3ccccc3o2)cc1` is reported as 69%.
`O=C(NC1CC(=O)N(CCCc2ccccc2)C1)c1ccsc1` (stereo not drawn) has a viability of 113%.
With `O=C(NCC1(c2ccccc2)CCCC1)C(=O)Nc1cccc(Br)c1` the viability was 70%.
`CC(=O)N1c2ccc(S(=O)(=O)N3CCN(CCOc4ccc(Cl)cc4)CC3)cc2CC1C` (stereo not drawn) has a viability of 65%.
`Cc1cc(C)n(CC(C)NCC(=O)NC(C)C)n1` (stereo not drawn) has a viability of 92%.
For `Cc1ccc(C(=O)N(CCCN)[C@@H](c2oc3cc(Cl)ccc3c(=O)c2Cc2ccccc2)C(C)C)cc1`, the viability was 93%.
The viability of `Cc1ccc(NC(=O)c2cc3cc(N(C)S(C)(=O)=O)ccc3s2)c(C)c1` is reported as 67%.
`O=C(Nc1nc2c(s1)CN(Cc1ccccc1)CC2)c1ccc(Cl)cc1` has a viability of 76%.
With `CN1CCN(Cc2c(O)c(Cl)cc3c4c(c(=O)oc23)CCC4)CC1` the viability was 66%.
`C=C(C)C1Cc2c(ccc3c2O[C@@H]2COc4cc(OC)c(OC)cc4[C@@H]2C3=O)O1` (stereo partly drawn) has a viability of 118%.
`CCOC(=O)C1CCCN(c2ccc(-c3ccc(C)c(S(=O)(=O)N4CCOCC4)c3)nn2)C1` (stereo not drawn) has a viability of 87%.
`CCc1cn[nH]c1C1CCCN(C(=O)c2cc3cc(Cl)cc(OC)c3o2)C1` (stereo not drawn) has a viability of 69%.
`COc1ccc(C(CC(=O)N2CCN(c3cnccn3)CC2)c2ccccc2)cc1` (stereo not drawn) gave a viability of 72%.
With `CCc1ccc(C(=O)N2CCCC(c3cccc(C(=O)N4CCN(c5ccccc5F)CC4)c3)C2)cc1` (stereo not drawn) the viability was 68%.
The viability of `ClC1(Cl)CC1CNc1ncnc2sc3c(c12)CCC3` (stereo not drawn) is reported as 87%.

Series 3
Organism: Sarcocystis neurona
Effect on: parasite activity
Tested at: concentration not given
`CCC(COC(=O)c1cc(OC)c(OC)c(OC)c1)(c1ccccc1)N(C)C.O=C(O)/C=C\C(=O)O` (stereo not drawn) — result for activity class: “inactive”.
For `Br.COc1ccc2c(c1)[C@]13CCCC[C@@H]1[C@H](C2)N(C)CC3`, activity class read “inactive”.
`CCCCCCCCCOc1ccc2[nH]cc(CCN)c2c1` — result for activity class: “inactive”.
`COC(=O)N1CCN(C(=O)Cc2ccc(Cl)c(Cl)c2)C(CN2CCCC2)C1.O=C(O)/C=C/C(=O)O` (stereo not drawn): activity class “inactive”.
`C[C@]12CC[C@H]3[C@@H](CCC4=CC(=O)CC[C@@H]43)[C@@H]1CC[C@@H]2O` — result for activity class: “inactive”.
Under activity class, `COc1ccc2[nH]cc(C3=CCNCC3)c2c1` is recorded as “inactive”.
Under activity class, `C=C(C)CN1CC[C@]23c4c5ccc(O)c4O[C@H]2c2[nH]c4ccccc4c2C[C@@]3(O)C1C5.Cl.O` is recorded as “inactive”.
For `COc1ccc2[nH]cc(CCN)c2c1`, activity class read “inactive”.
`COc1cc(N)c(Cl)cc1C(=O)NC1CN2CCC1CC2.Cl` (stereo not drawn): activity class “inactive”.
Under activity class, `OC[C@H]1O[C@@H](n2cnc3c(N[C@H]4CCC[C@@H]4O)ncnc32)[C@H](O)[C@@H]1O` is recorded as “inactive”.
`CNC(=O)Oc1ccc2c(c1)[C@]1(C)CCN(C)[C@@H]1N2C.CNC(=O)Oc1ccc2c(c1)[C@]1(C)CCN(C)[C@@H]1N2C.O=S(=O)(O)O` — result for activity class: “inactive”.
`Cl.OC1CCCCC1N1CCC(c2ccccc2)CC1` (racemic): activity class “inactive”.
For `CN1CC[C@@H](c2ccc(F)cc2)[C@H](COc2ccc3c(c2)OCO3)C1`, activity class read “inactive”.

Other studies, line by line
`COc1ccc(-c2c(Nc3ccccn3)[nH]c3c(C4=CCCCC4)c(-c4ccccc4)nn3c2=O)cc1`: “grade 3 alkaline phosphatase increased incidence” 5% (patients with advanced malignancies; oral, dose not given, treatment-emergent adverse events).

Repeated from above (series 3):
For `CN1CC[C@@H](c2ccc(F)cc2)[C@H](COc2ccc3c(c2)OCO3)C1`, activity class read “inactive”.
`COc1cc(N)c(Cl)cc1C(=O)NC1CN2CCC1CC2.Cl` (stereo not drawn): activity class “inactive”.
`Cl.OC1CCCCC1N1CCC(c2ccccc2)CC1` (racemic): activity class “inactive”.
`C[C@]12CC[C@H]3[C@@H](CCC4=CC(=O)CC[C@@H]43)[C@@H]1CC[C@@H]2O` — result for activity class: “inactive”.
`CCC(COC(=O)c1cc(OC)c(OC)c(OC)c1)(c1ccccc1)N(C)C.O=C(O)/C=C\C(=O)O` (stereo not drawn) — result for activity class: “inactive”.
